Experimental data gathered from unrelated publications.
Numbered parts are unrelated; each lists some results of a single study. Changes are numbered by the printed parent chain.
Chain of UniProt P61075 (whole entry, looked up): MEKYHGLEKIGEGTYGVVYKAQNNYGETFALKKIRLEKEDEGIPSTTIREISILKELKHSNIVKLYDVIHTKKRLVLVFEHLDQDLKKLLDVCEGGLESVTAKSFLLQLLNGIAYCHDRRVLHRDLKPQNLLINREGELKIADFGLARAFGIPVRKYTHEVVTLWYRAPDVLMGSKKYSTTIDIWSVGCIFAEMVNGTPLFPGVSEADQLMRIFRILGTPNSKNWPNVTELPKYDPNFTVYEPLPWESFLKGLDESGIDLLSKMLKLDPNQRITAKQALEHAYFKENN

Sample 1
Target: HLA class I histocompatibility antigen, C alpha chain, allele C*04:01 (Homo sapiens, UniProt P10321)
Effect on: peptide-MHC binding
Form: peptide
Tested at: concentration not given
Sequence	binding
FPMIIGSEL	inactive
IFDDLQGSL	active
YPPPRYITV	inactive
RPPYSSYGY	inactive

Sample 2
Target: Prothrombin, mature alpha-thrombin (F2, Homo sapiens, UniProt P00734)
Technique: aptamer microarray, sandwich
Form: DNA with 2'F-ANA
Matrix: in vitro
Tested at: 200 nM
Setting: whole 15-mer aptamer, many near background
With: Cy3 exosite-II aptamer, 400 nM
Reading: higher = stronger binding
Strand: GGTTGGTGTGGTTGG
Modification	mean fluorescence intensity
2'F-ANA at 2 5 6 7 9 10 11 14	60.4 a.u.
2'F-ANA at 1 2 4 6 8 11 12 13 15	172 a.u.
2'F-ANA at 4 5 6 7 9 12 13	187 a.u.
2'F-ANA at 4 7 10 12 13 15	92.6 a.u.
2'F-ANA at 1 4 7 12 15	316 a.u.
2'F-ANA at 4 5 9 10 12 14 15	41.7 a.u.
2'F-ANA at 1 4 5 6 11 12 13	77.3 a.u.
2'F-ANA at 4 6 9 12 14	99.1 a.u.

Sample 3
Target: CCNA1, cyclin fold, Cln2 fusion (human)
Technique: yeast growth competition, sequencing
Matrix: yeast
Setting: strong parent motif
Baseline: not given
Reading: higher = stronger binding
Starting sequence: viral docking peptide; TSVRRALFTGGSD
Change	normalised enrichment score
G11N	1.17
S12E	1.38
R5I	0.23
T9H	0.74
S12W	0.751
A6V	0.911
G10R	0.314
F8L	0.315
G11C	1.43
F8Q	0.249
V3A	0.659
R4K	0.828
G11M	1.04
S12V	1.09
V3F	0.04
S12P	1.24
T9C	0.944
A6Y	-0.421

Sample 4
Target: RNA binding protein fox-1 homolog 2, RRM domain, GST-SBP tag (RBFOX2, Homo sapiens, UniProt O43251-10, residues 100-194)
Technique: RNA Bind-n-Seq
Form: RNA
Matrix: in vitro
Tested at: 365 nM
Setting: natural RNA segment, single round, ends assumed
Baseline: no-protein control
Reading: higher = stronger binding
Constant ends, left off below: GGGAGUUCUACAGUCCGACGAUC … UGGAAUUCUCGGGUGCCAA
Construct (chain): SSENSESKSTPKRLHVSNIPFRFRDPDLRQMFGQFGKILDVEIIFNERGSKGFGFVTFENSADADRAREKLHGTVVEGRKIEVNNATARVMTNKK
Strand	RBNS enrichment (R)
ACAACCUGCAGGGCGGCGACGACCUGGACCCCAACUACGUGCUGAGCUCGCGGGUGCGCACGGGCCGCAGCAUCCGUGGCUUCUGCCUCCCCCCGCACUGCAGCCGCGGG	0.411
ACUUUCAUGUACUAUGGAAAAGUACAAGUAGGUUUACAUUACUGAUUUCCAGAAGUAAGUAGUUUCCCCUUUCCUAGUCUUCUGUGUAUGUGAUGUUGUUAAUUUCUUUU	0.379
GGUGGAUGCUGUGCUACGUGUGAAAUCUGUCUUUGCCAGGCCUGUCUCAGUGAUUAGCUUUUGGUAUGUCUGUAGCUUUCCUUGAAGUUGAAUAAAUGUUUCCCCCACUC	0.579
GUCUUGGCCCUGGGCCAUAUGAGGGGCCAGGAAAUGAACGACAAGGAGGAUAAGAGUGUUCUUUCUUGAAAGCCGGGACUUCCCCUCAAGAACCUGGGCCUGGGGCCGGG	1.07
CUUUGUCCUCCGCUAAGAGACCCUGCCCUACCUGGCCGCUGGGCCCCGUGACUUUCCCUUCCUGCCCAGGAAAGUGAGGGUCGGCUGGCCCCACCUUCCCUGUCCUGAUG	0.193
CUCCUGUGGCCUUGGGCAGAACAGUAAAUACUCUGUGCACGGAGGAAAGACAUGCCCAAGAGGAAGGAAGUACUGACCAUCGGCUGCCUGUGAGCAGCUUAGCAAGGAGC	0.51
AGUACCCACCCCGUCCACCUCCCCCAUGAAGGCAGCUGAGCUUUCAGAGCUGGGUUCAAAAAGAAAAUUCUAGUGUCUAUAUGGAGCACUUGGUUUGGGGGUUCAGGCUC	0.446
AUAAUGCCUACCUUCAAAACCAGAAUCGGCAGCACUCUACAAAUGAAAGUGCCUGUGUCUCACACCAAGAAUCUUGCCUAACCUGUCAGAGUGCCUAAUCUUGUGGUUAU	0.351

Other studies, line by line
Structure (SMILES)	target	effect on	technique	tested at	quantity	result
O=C(O)[C@H]1[C@H](Cn2nnc3ccccc3c2=O)CC[C@@H]1C(=O)c1ccc(OCCC2CCOCC2)cc1	Cyclin-dependent kinase 2 homolog (CRK2, Plasmodium falciparum, UniProt P61075)	cell-free assay	competition with immobilised ligand	1 µM	remaining binding	91%

A few entries again (sample 2):
Modification	mean fluorescence intensity
2'F-ANA at 4 7 10 12 13 15	92.6 a.u.
2'F-ANA at 1 4 5 6 11 12 13	77.3 a.u.
2'F-ANA at 1 2 4 6 8 11 12 13 15	172 a.u.
2'F-ANA at 4 5 9 10 12 14 15	41.7 a.u.
